Assay results collected from several papers.
Numbered parts are unrelated; each lists some results of a single study.

Block 1 — method: protein-binding microarray; form: double-stranded DNA, one strand shown; matrix: in vitro; tested at: 2540 nM top; setting: 60-bp whole probe; with: salmon DNA 0.4 mg/ml; relative to: random background probes; direction: higher = stronger binding; endpoint: fitted relative affinity; shared flanks, not repeated: GCCTAGCAC … GTCTTGATTCGCTTGACGCTGCTG
Target: Interferon regulatory factor 3, full length, phosphomimetic (IRF3, Homo sapiens, UniProt Q14653, residues 1-427, S386D/S396D/S398D/S402D/T404D/S405D)
UniProt Q14653, sequence (whole entry, unmodified, looked up): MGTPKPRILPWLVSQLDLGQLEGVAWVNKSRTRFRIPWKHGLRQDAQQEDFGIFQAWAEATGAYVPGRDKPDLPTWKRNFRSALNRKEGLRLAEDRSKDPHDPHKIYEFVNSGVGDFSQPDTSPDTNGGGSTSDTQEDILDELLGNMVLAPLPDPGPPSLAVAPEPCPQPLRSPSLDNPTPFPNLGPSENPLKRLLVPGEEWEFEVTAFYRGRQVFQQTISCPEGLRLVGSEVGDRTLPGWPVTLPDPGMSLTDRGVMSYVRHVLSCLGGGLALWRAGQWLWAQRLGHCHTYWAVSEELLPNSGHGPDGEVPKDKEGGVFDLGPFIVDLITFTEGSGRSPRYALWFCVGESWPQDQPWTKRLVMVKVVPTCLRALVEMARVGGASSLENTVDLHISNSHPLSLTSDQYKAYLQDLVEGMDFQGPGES
Oligonucleotide = GACGATCTCAGACTGCAGACGTGCTAG; result = 0.253 z-score
Oligonucleotide = GACGGTAGCCTTCTCCTGACGTGCTAG; result = 2.02 z-score
Oligonucleotide = GACGATTTAAGTATCGAGACGTGCTAG; result = 0.955 z-score
Oligonucleotide = TTAGGCTTCGGGACTGGGTTAGTGCTA; result = -1 z-score
Oligonucleotide = GACTGTTTCGGTTCCGGGACGTGCTAG; result = 9.22 z-score
Oligonucleotide = GAAGGTTTCGGTTTCGGGACGTGCTAG; result = 10.6 z-score
Oligonucleotide = TTAGAACTGAGACCGGATTAGTGCTAG; result = -0.073 z-score
Oligonucleotide = TTAGGTATCAGACTGGATTAGTGCTAG; result = 1.31 z-score
Oligonucleotide = TCAGGTATCCTTTTCCTTTAGTGCTAG; result = 8.64 z-score
Oligonucleotide = GACGGTTTCGACTATCGCGACGTGCTA; result = 2.89 z-score
Oligonucleotide = GACGGTTTCGGTCTAGGGACGTGCTAG; result = 6.94 z-score
Oligonucleotide = TTAGGCATCGGGTTTCGGTTAGTGCTA; result = 2.1 z-score
Oligonucleotide = TCATCTCGGAGATCTCGAACTGTGCTA; result = 0.553 z-score
Oligonucleotide = GACGATTTCCTACTGCTGACGTGCTAG; result = 2.3 z-score
Oligonucleotide = AGACCTTCACCTCTCTGTCCGTGCTAG; result = 0.0825 z-score
Oligonucleotide = GACGGTATCGGCTTCGGGACGTGCTAG; result = 1.27 z-score
Oligonucleotide = TTAGGACTGCTTCTCCTTTTGTGCTAG; result = 0.44 z-score
Oligonucleotide = TCACTTACCTCACTCGTACTGTGCTAG; result = 0.783 z-score
Oligonucleotide = GTGTATATGTGATTAAAATAGTGCTAG; result = -0.0984 z-score
Oligonucleotide = TGAGGACTGGGTTTCGGTTAGTGCTAG; result = 2.82 z-score
Oligonucleotide = GCCGATATCAGACTGGAGACGTGCTAG; result = 0.791 z-score

Block 2 — method: protein binding microarray; form: double-stranded DNA, one strand shown; matrix: in vitro; tested at: not given; relative to: not given; direction: higher = stronger binding; endpoint: E-score
Target: Histone acetyltransferase KAT6A, winged helix 2, GST fusion (KAT6A, Homo sapiens, UniProt Q92794, residues 85-181)
Setting: 8-mer, flanks averaged, mean of 2 arrays, mostly near background
Target sequence (chain): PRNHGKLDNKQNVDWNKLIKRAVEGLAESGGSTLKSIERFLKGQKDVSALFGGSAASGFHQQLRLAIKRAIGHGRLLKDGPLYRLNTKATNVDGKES
Oligonucleotide = TCTGTAAA; result = -0.104
Oligonucleotide = AATCAAGG; result = -0.046
Oligonucleotide = GAGGTTAC; result = -0.0597
Oligonucleotide = CTCCATTA; result = -0.115
Oligonucleotide = ATTGTTGC; result = 0.0206
Oligonucleotide = CGCTGTTC; result = 0.113
Oligonucleotide = ACTCTGGA; result = -0.0041
Oligonucleotide = GCGTTGAC; result = -0.0214
Oligonucleotide = CATGTGAG; result = -0.121
Oligonucleotide = AGACCTAG; result = -0.0303
Oligonucleotide = ATGTATAC; result = -0.00143
Oligonucleotide = ACTCGAAT; result = -0.0281
Oligonucleotide = CTCTGCTA; result = 0.0453
Oligonucleotide = CATTGAAG; result = 0.0921
Oligonucleotide = GCTCTATA; result = -0.135
Oligonucleotide = CCAGAAAC; result = 0.127
Oligonucleotide = GGAAAGCA; result = 0.117
Oligonucleotide = CCAGGCGC; result = 0.133
Oligonucleotide = CGGTAAGC; result = -0.0152
Oligonucleotide = AGAGACAA; result = -0.0452
Oligonucleotide = ATCGCAGC; result = 0.152
Oligonucleotide = TATCTGAA; result = 0.137
Oligonucleotide = ATAGGACC; result = -0.193
Oligonucleotide = GAATGGCA; result = 0.0758
Oligonucleotide = AGGGTGGA; result = 0.0267

Block 3 — method: RNA Bind-n-Seq; form: RNA; matrix: in vitro; tested at: 365 nM; relative to: no-protein control; direction: higher = stronger binding; endpoint: RBNS enrichment (R)
Target: RNA binding protein fox-1 homolog 2, RRM domain, GST-SBP tag (RBFOX2, Homo sapiens, UniProt O43251-10, residues 100-194)
Setting: natural RNA segment, single round, ends assumed
Construct (chain): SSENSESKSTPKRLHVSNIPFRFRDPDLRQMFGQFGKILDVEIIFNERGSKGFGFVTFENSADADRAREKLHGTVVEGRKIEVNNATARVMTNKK
Oligonucleotide = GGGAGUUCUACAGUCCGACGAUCUUACCUUAAAGUGGAAUCAGAAUGAGGUUCCCAAGCAAGAACUUGCCACCAAGGCCCCAAAGGAUAGGGACGGUCGUAUCCUUAUGAAUCCCACUAAAACUUAGGCUGGGUGGAAUUCUCGGGUGCCAA; result = 0.326
Oligonucleotide = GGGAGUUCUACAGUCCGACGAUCUAAUCCCAAAUGUGAUAGUAGCUUCAGUAUGUUUCCUCACCCAAAAACCAUUUGGCUGGCAGAAAUUAUCUAGAAAAAUUAUUAUUUUGCAGUUAUCUGAGACACCAAACUGGAAUUCUCGGGUGCCAA; result = 0.401
Oligonucleotide = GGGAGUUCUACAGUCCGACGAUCUCACAGACCUCAGUCAUGUGAUAAGCUAUGUUAUGGUUCUUUAUCUGUUUAAAAUAUGGAAUCUUCACUCCCGCUGCCUCUGUUUCUUGGACUCCAUGACGAUUUCAGAAUGGAAUUCUCGGGUGCCAA; result = 0.345
Oligonucleotide = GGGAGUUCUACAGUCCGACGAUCGCAGACUGUGACCCUCGUGUUUGAGGAAAGCUGGUGUUUUCUGUGUUGGAACGCCACGGUUGCCAGACCAUUCCUUCCAUCUAACUGCGUAUUACACAAGGGCAUCGAGUUGGAAUUCUCGGGUGCCAA; result = 0.746
Oligonucleotide = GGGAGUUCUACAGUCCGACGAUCUUGUUCCUAGCUAAUUUCAUGGCUGUGGGAAGUUAGCAACACUAGGUUUAUGACUCUGAAGACCAGAGGACAGCAGGCUUUAAGAGGGCUUAAAUUGGGAGUCAAGGACUUGGAAUUCUCGGGUGCCAA; result = 0.855
Oligonucleotide = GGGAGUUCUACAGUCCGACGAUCUGCGUUUCAGGGACAUGGGGAGACAUGAAGAAGGCAGCUGCAGCUUGCUGUGGAGACCCCGUGGCUCUGCACUUUACCCGUGAGGGCAUUAACCUGACCCAGCAUGGAAGUGGAAUUCUCGGGUGCCAA; result = 1.18
Oligonucleotide = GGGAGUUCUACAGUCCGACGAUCUAACAUAUUUAUUAUAAUUUAUUUGCACCCUUGGGAAGAUUGCUUUGGCAUUCUGCCUUGAUUCCUUCUCAUUGAUGUCCAGGUCAUCUGGAGGCCGGGGGUUCUCAGACUGGAAUUCUCGGGUGCCAA; result = 1.77
Oligonucleotide = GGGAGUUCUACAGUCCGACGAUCUAAUGCCAAUUUAAGAUCUCUCUUAACUUGUGGCCAAGAAAUUCUAGAUUUUCCAGCUGACUUUGGUAUAAUAUAUAUUUAUCAGGAACUUCUCUCAGCAGAGAGUACCCUGGAAUUCUCGGGUGCCAA; result = 0.309
Oligonucleotide = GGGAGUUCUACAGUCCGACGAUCUGUAUGACCAAAGCAUUUGAUGCCAAAAUUUGACGUUAAAGUAAUGAUUUGAUUUCCUGCCCUGGUUUUGAAGGUCCAUUUUUUUCCCUUUUGCAUUGACUUGCUUGUUUUGGAAUUCUCGGGUGCCAA; result = 0.664
Oligonucleotide = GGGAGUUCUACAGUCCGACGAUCCAAAUACACAGAGCCAGCUCUACCCACUCCUAAGAGCAGAGGCCAACUCUAAAGAAAGGUCUCAGGUUACACAGGCCCCCCCACUUAUGUUUUCAGGGGAUGCCAUUUAUUGGAAUUCUCGGGUGCCAA; result = 0.361
Oligonucleotide = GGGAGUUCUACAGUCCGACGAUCCUCUUCCAAACCACAUGGGAGACAGUUUCCUUCAUGCCCAAGCCUGAGCUCAGAUCCAGCUUGCAACUAAUCCUUCUAUCAUCUAACAUGCCCUACUUGGAAAGAUCUAAUGGAAUUCUCGGGUGCCAA; result = 0.859
Oligonucleotide = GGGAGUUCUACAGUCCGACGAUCGCAAGAACAAGAACUGUUUAAGGCACCUCUGUUCCCAGCCACUGAAGAGAGACGUCAGAAGAUGUUAGAAUAGGUCAAAGCCAAGGCUCUGGUGGGCUGAGGGAAGGUUUUGGAAUUCUCGGGUGCCAA; result = 0.316

Block 4 — method: RNA Bind-n-Seq; form: RNA; matrix: in vitro; tested at: not given; setting: RNA with constant flanks, ends assumed; relative to: input RNA pool; direction: higher = stronger binding; endpoint: bound/input enrichment
Target: RING finger protein unkempt homolog, zinc fingers 1-6, GST-SBP tag (UNK, Homo sapiens, UniProt Q9C0B0, residues 30-357)
UniProt Q9C0B0, sequence (30-357, looked up): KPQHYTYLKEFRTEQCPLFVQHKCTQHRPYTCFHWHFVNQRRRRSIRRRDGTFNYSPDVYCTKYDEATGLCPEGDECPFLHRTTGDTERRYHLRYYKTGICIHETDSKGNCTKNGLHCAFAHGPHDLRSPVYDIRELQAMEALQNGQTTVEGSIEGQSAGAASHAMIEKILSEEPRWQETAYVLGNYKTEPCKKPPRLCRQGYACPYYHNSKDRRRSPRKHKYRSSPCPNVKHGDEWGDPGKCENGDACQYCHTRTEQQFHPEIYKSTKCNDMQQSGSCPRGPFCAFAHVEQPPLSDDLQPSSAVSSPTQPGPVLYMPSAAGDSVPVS
Oligonucleotide = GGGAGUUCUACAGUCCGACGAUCCAGCUGUGUCUUCUAAAGUGGAUCAGUGAGAGAGGCUCCUGGACCUGCGAGCUGUGCUGUUACCGAUACCACGUCACAGCCAUUAAAAUGAAGCAACCUUGCCAGUGGCAGAGCAUUUCUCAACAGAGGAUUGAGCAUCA; result = 0.12 ratio
Oligonucleotide = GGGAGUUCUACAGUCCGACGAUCGACACUCUCAUCAAGACCUUUGUGCGCUCGCAGACCACCCAAGUGCAUGAUGGGAAAGGUAUCCGAUUUACUGCUAAUGAGGACAUUCGUCCGGAAAAGGGGUCUGGUGUGGACGAUCCUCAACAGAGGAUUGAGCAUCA; result = 0.196 ratio
Oligonucleotide = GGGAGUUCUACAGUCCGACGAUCACAAUUGCUGUAAAACAAAGGUAAUUACUUAAGUGGUGGUGCAGGCCUUUAAUCCCAGCACUCCGAAGGCAGAGGAAGGUGGAUCUCUGAGAUCAAGGCCAGCCUGGUCUACACAGUGAGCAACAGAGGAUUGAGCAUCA; result = 0.31 ratio
Oligonucleotide = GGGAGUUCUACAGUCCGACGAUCAAUGUCAUUGAUGCCAAUUUCUGUAUGAAAGGAGAAGACUUGGACUCUCAGGUUGGAGUUACCGAUUUUUCAAUGUAUCUCAAGGACGGGAACAGCAGUAAAGGUACUGAAGGAGACGGUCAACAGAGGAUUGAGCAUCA; result = 0.192 ratio
Oligonucleotide = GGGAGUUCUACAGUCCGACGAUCUUGGAUUUCAUUUCCCCAGGUCUUCAGUGUUGAUGUAAAUGUGUUUCUGUAGUGUUGCUUAUCCGCACUUUGCGCAUUGUGUAAGUUGGGUAGCAAAAAUGGCAAAAGAGAUGCAAAAUUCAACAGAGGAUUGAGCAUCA; result = 0.153 ratio
Oligonucleotide = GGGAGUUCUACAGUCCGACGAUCUUGUCUAGCAAAUAAAAGAUGUUAAUAUAUUCCUGUUACUGGCAUGUGCACGACUAUGUUAUCCGAAGCCACUUUAUCAUUUUCCUGCUUUAAAUAGAAAUGUCUAUUUAUGAAUUCUGCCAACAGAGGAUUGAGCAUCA; result = 1.36 ratio
Oligonucleotide = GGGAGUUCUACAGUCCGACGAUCAGAAUCUUGGGACUGUUUUACUUAAUUGGUCAUUGAUAGCUUAACAAACAUGGAGAUAAGAUCCGAAAUCUUGACAUCAACAGGUAUUAAGCAGAAAAAACCAUGGCCACGUGUCUCCUGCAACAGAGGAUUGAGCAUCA; result = 0.11 ratio
Oligonucleotide = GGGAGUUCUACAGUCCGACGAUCCAAAAAAUGGUGCCUCCGGAUGCUCCUUCUUCUGUGAGCACAGGCUCCCCUCAGCCCCCCCGCUUCACCUAUGCUCAGCAGAAGGAGAAGCCCCUAGUUCAAGAGAAGCAGCACCCACAGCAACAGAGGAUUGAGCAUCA; result = 0.647 ratio
Oligonucleotide = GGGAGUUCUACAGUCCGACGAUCAUAUCCAGUGGCCUAGAAUUUGUAUCCCACAACCCACCCAGUGAAGCAGCUACUCCUCCAGCCGCAAGGACCAGUCCCUCGGGGGGAACGUGGUCAUCAGUGGUCAGUGGGGUUCCAAGACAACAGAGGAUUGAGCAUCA; result = 0.107 ratio
Oligonucleotide = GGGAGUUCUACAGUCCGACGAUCGGAUACCUUCAGUCGAAGUUUUUUUAGCCCUCACUGAGCUACUUCCAAGUUUGGAAGUACUCCGUGACCUUGGUGAGUUUCUGUCCCCAAUCCCUUAACCCCUCAUCAAUGCUGCUAGUUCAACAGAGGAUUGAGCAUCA; result = 0.36 ratio
Oligonucleotide = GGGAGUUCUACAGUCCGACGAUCGAUCAGACCAGUAAGCCUGAUGAAACUGGUAAAAGUAGUGUGCUGACUGUAUCAAAUGUAUACCGCCGUAAAUCAAGCAUCAAGGCUACUGUGGUCUCUUCUCCUAAAGCAAAAAGUACACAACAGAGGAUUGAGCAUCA; result = 0.156 ratio

For quick reference, copied from above (block 2):
Oligonucleotide = CTCCATTA; result = -0.115
Oligonucleotide = ATTGTTGC; result = 0.0206
Oligonucleotide = CGCTGTTC; result = 0.113
Oligonucleotide = ACTCTGGA; result = -0.0041
Oligonucleotide = GCGTTGAC; result = -0.0214
